# Measurements from different studies.
# Lines come from different studies, so protocols differ. ± marks the error that the study gave.
# Gamma-aminobutyric acid receptor subunit alpha-4/beta3/delta: Gamma-aminobutyric acid receptor subunit alpha-4/beta3/delta (Homo sapiens, UniProt O14764+P28472+P48169)
# Sequence of UniProt P48169 (whole entry, looked up): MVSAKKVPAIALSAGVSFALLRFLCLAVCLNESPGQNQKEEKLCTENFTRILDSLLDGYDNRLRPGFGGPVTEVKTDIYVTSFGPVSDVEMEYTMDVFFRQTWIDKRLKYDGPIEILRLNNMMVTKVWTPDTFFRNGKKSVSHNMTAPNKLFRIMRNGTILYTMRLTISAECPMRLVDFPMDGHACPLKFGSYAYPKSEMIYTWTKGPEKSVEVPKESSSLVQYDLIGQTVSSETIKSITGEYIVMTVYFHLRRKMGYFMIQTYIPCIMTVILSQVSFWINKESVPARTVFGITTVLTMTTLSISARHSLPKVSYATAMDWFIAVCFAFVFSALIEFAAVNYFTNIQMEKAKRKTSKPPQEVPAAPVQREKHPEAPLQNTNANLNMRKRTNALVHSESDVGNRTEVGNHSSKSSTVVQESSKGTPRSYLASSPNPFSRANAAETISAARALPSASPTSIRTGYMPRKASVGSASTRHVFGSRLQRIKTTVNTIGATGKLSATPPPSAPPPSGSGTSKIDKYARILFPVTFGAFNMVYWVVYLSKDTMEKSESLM
# Sequence of UniProt P28472 (whole entry, looked up): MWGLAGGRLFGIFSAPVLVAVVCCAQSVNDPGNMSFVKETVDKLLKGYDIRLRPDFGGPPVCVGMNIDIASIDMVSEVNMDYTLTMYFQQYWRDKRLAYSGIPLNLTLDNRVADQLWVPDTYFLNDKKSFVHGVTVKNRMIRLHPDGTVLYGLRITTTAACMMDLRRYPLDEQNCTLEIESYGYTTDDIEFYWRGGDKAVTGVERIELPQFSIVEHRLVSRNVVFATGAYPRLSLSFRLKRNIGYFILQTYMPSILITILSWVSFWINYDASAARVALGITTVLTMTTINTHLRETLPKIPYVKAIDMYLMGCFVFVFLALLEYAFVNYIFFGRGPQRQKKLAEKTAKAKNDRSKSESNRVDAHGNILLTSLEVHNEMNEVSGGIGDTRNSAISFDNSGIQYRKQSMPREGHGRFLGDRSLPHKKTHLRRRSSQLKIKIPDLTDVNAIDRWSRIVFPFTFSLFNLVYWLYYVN
# Sequence of UniProt O14764 (whole entry, looked up): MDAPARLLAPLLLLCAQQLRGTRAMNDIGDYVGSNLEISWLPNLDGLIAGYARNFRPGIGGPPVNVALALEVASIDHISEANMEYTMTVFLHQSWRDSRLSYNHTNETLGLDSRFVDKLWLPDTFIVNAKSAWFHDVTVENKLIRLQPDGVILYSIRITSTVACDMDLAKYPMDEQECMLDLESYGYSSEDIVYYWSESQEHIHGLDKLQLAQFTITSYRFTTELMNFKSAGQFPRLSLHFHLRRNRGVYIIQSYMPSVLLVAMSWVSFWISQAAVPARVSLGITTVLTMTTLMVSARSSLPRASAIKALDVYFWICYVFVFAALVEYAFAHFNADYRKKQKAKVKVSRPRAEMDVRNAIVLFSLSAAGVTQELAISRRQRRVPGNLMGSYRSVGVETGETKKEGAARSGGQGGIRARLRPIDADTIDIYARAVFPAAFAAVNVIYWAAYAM
# Sequence of UniProt P41146 (whole entry, looked up): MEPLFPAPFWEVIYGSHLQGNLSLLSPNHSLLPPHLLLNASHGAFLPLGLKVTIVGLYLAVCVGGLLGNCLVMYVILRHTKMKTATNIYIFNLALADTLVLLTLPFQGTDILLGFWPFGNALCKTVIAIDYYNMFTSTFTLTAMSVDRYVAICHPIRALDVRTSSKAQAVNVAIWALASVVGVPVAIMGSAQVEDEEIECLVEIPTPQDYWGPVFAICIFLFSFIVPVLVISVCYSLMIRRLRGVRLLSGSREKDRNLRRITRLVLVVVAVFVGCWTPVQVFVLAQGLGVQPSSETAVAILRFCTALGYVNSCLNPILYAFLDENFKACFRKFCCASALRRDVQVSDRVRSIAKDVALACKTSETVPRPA
# Sequence of UniProt P07148 (whole entry, looked up): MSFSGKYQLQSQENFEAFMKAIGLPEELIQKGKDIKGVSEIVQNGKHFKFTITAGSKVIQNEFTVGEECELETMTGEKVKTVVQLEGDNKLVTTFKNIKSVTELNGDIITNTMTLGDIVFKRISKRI
# Sequence of UniProt Q06520 (whole entry, looked up): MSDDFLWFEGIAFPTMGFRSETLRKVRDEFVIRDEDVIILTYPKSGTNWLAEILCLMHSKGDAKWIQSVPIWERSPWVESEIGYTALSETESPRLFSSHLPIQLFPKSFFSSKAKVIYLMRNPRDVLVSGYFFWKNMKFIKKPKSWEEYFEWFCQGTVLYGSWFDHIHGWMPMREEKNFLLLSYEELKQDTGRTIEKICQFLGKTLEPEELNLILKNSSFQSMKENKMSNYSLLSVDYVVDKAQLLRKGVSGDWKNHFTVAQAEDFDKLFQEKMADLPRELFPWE
# Sequence of UniProt A0QZ49 (whole entry, looked up): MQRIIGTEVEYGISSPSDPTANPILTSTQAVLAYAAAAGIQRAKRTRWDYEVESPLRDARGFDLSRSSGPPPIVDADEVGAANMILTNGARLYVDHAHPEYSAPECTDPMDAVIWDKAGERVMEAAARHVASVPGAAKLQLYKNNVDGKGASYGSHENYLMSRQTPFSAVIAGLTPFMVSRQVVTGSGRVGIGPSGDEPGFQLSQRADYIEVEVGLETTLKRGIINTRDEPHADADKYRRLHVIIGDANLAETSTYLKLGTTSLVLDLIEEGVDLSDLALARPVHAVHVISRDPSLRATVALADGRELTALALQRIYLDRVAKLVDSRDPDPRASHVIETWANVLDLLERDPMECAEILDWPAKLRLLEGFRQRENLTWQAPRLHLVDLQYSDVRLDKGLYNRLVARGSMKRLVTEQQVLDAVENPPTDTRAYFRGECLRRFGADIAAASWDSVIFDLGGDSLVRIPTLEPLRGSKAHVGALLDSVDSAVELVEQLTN
# Sequence of UniProt Q8VD00 (whole entry, looked up): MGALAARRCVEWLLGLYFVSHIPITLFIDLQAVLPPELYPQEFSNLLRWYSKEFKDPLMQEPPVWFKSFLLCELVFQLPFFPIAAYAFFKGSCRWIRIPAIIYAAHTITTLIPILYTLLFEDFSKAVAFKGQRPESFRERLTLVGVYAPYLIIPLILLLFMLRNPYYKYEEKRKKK
# Sequence of UniProt P9WPA5 (whole entry, looked up): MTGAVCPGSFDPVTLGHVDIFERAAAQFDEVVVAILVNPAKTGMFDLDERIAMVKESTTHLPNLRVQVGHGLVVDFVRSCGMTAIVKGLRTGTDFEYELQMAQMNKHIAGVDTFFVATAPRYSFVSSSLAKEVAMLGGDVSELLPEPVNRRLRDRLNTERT
# Sequence of UniProt P19484 (whole entry, looked up): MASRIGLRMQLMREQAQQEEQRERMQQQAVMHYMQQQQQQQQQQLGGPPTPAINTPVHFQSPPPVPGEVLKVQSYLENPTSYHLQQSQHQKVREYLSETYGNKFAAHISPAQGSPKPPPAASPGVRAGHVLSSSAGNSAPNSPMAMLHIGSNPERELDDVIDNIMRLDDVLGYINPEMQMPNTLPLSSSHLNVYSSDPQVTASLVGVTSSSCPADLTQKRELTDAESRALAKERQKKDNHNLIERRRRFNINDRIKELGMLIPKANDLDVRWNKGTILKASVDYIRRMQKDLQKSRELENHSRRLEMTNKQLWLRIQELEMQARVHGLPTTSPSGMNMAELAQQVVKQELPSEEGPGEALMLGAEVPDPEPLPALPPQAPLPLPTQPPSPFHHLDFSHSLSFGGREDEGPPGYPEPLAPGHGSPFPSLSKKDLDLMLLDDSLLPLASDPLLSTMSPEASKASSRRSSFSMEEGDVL
# Sequence of UniProt P20272 (whole entry, looked up): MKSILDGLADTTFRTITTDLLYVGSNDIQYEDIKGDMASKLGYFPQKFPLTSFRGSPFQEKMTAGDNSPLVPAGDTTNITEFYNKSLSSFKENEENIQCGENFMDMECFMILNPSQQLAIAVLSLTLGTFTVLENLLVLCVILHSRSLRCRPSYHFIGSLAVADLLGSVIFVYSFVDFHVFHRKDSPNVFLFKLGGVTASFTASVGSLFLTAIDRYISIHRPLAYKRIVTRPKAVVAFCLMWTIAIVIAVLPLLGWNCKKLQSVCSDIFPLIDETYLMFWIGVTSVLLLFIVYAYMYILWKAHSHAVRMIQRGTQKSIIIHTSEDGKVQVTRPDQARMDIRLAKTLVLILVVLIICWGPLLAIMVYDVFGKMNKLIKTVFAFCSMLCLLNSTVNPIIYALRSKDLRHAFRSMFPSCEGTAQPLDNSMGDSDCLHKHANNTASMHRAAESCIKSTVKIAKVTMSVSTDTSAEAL
# Sequence of UniProt P47746 (whole entry, looked up): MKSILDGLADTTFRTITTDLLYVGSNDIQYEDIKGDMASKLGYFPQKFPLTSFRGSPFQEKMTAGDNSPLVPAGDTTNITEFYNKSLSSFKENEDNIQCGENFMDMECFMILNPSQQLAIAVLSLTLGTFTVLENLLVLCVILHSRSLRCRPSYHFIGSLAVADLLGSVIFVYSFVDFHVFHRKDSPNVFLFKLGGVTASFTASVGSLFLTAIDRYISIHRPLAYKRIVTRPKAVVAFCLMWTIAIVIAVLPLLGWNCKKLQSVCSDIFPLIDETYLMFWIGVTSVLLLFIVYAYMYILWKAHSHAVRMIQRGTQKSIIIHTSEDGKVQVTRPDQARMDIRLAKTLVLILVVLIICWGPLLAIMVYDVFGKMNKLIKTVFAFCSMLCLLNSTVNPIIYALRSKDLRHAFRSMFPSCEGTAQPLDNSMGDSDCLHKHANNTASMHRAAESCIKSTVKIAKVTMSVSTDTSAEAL
Compound,target,assay,test system,setting,how to read,measurement,value
O=C(O)c1cnn(-c2ccccc2)c1OCCCc1c[nH]c2ccccc12,"Phosphopantetheine adenylyltransferase (coaD, Mycobacterium tuberculosis, UniProt P9WPA5)",ITC direct titration,5% DMSO,"pH 8.0, 25 °C",,Kd,15000 ± 4000 nM
CC1=CC[C@@H]2[C@@H](C1)c1c(O)cc(CC#CCCCNS(C)(=O)=O)cc1OC2(C)C,"Cannabinoid receptor 1 (Cnr1, Rattus norvegicus, UniProt P20272)","GTPγS binding, antagonist",,cell membranes,,Kb,22 nM
CN(C(=O)/C=C/c1ccoc1)[C@@H]1CC[C@@]2(O)[C@H]3Cc4cccc5c4[C@@]2(CCN3CC2CC2)[C@H]1O5,"Nociceptin receptor (OPRL1, Homo sapiens, UniProt P41146)","GTPγS binding, agonist",,cell membranes,,EC50,1760 nM
C[C@]12CC[C@H](O)CC1=CC[C@@H]1[C@@H]2CC[C@]2(C)C(=O)CC[C@@H]12,"Sulfotransferase 2A1 (SULT2A1, Homo sapiens, UniProt Q06520)",,,,,Kd,600 ± 100 nM
CC[C@H](C)[C@@H](CC(=O)N[C@@H](CCC(=O)O)CC(=O)O)NC(=O)C[C@@H](NC(=O)C[C@H](CCCN)NC(=O)C[C@H](Cc1cccnc1)NC(=O)C[C@@H](NC(=O)C[C@H](CCC(=O)O)NC(=O)C[C@H](Cc1c[nH]c2ccccc12)NC(=O)C[C@@H](NC(=O)C[C@@H](N)CCCN)C(C)C)C(C)C)C(C)C,HIV-1 gp41 IQN17,fluorescence polarization,,fluorescein-labelled compound,,Kd,104000 ± 8200 nM
CC(=O)[C@H]1CC[C@H]2[C@@H]3CC[C@H]4C[C@H](O)CC[C@]4(C)[C@H]3CC[C@]12C,Gamma-aminobutyric acid receptor subunit alpha-4/beta3/delta,"GABA current potentiation, positive modulator, two-electrode voltage clamp",Xenopus laevis oocytes,"30 s preincubation, with: GABA EC10",,EC50,540 ± 90 nM
CCCCCc1cc(O)c2c(c1)OC(C)(C)[C@@H]1CCC(C)=C[C@@H]21,"Fatty acid-binding protein, liver (FABP1, Homo sapiens, UniProt P07148)","binding, DAUDA displacement",,with: DAUDA 0.5 µM,,Kd,300 ± 340 nM
O=c1[nH]c2ccccc2n1C1CCN(CCCC(c2ccc(F)cc2)c2ccc(F)cc2)CC1,"Transcription factor EB (TFEB, Homo sapiens, UniProt P19484)","nuclear translocation, activator, GFP-TFEB imaging",AML12,2 h,reference: Torin 1,AC50,8330 nM
CC[C@H](C)[C@@H](CC(=O)N[C@@H](CCC(=O)O)CC(=O)O)NC(=O)C[C@@H](NC(=O)C[C@H](CCCN)NC(=O)C[C@H](Cc1cccc(C(F)(F)F)c1)NC(=O)C[C@@H](NC(=O)C[C@H](CCC(=O)O)NC(=O)C[C@H](Cc1c[nH]c2ccccc12)NC(=O)C[C@@H](NC(=O)C[C@@H](N)CCCN)C(C)C)C(C)C)C(C)C,HIV-1 gp41 IQN17,fluorescence polarization,,fluorescein-labelled compound,,Kd,10200 ± 300 nM
COc1cc(/C=C(\C#N)C(=O)c2ccc(O)c(O)c2)cc(I)c1O,"Pup deamidase/depupylase (dop, Mycolicibacterium smegmatis, UniProt A0QZ49)","enzyme activity, inhibitor",,60 min preincubation,,IC50,710 ± 80 nM
CCCCn1cc(C(=O)c2cccc3ccccc23)c2cccc(O)c21,"Cannabinoid receptor 1 (Cnr1, Mus musculus, UniProt P47746)","GTPγS binding, antagonist",,cell membranes,,Kb,40.3 nM
C[C@@]1(O)CC[C@H]2[C@H](CC[C@@H]3[C@@H]2CC[C@]2(C)[C@@H](C(=O)Cn4cc(C#N)cn4)CC[C@@H]32)C1,Gamma-aminobutyric acid receptor subunit alpha-4/beta3/delta,"GABA current potentiation, positive modulator, two-electrode voltage clamp",Xenopus laevis oocytes,"30 s preincubation, with: GABA EC10",,EC50,150 ± 30 nM
"C=CCN1CCC2(C)c3cc(O)ccc3CC1C2C (single isomer, unassigned; (-))","Sigma intracellular receptor 2 (Tmem97, Mus musculus, UniProt Q8VD00)","ligand displacement, radioligand",,"pH 8, cell membranes",,IC50,4620 nM
CCC(=O)O[C@](Cc1ccccc1)(c1ccccc1)[C@H](C)CNC,"Voltage-gated potassium channel (Doryteuthis opalescens, UniProt Q25376)",potassium current block,Loligo opalescens,"10 °C, +60 mV",,Kd,~40000 nM
CC[N+](C)(C)CCC(C(N)=O)(c1ccccc1)c1ccccc1,potassium channel,steady-state block,Doryteuthis pealeii,"internal application, with: membrane potential +100 mV",,Kd,56300 nM
